{"data": "Published values gathered from unrelated publications", "HCRTR2 del254-292/I293E/K294R/L160H/M161K/Q254E": "Orexin receptor type 2 (HCRTR2, Homo sapiens, UniProt O43614, del254-292/I293E/K294R/L160H/M161K/Q254E)", "note": "Lines come from different studies, so protocols differ. Several values in a cell are separate wells, animals, samples, runs or records. ± gives the spread as reported.", "chain of UniProt O43614 (whole entry, unmodified, looked up)": "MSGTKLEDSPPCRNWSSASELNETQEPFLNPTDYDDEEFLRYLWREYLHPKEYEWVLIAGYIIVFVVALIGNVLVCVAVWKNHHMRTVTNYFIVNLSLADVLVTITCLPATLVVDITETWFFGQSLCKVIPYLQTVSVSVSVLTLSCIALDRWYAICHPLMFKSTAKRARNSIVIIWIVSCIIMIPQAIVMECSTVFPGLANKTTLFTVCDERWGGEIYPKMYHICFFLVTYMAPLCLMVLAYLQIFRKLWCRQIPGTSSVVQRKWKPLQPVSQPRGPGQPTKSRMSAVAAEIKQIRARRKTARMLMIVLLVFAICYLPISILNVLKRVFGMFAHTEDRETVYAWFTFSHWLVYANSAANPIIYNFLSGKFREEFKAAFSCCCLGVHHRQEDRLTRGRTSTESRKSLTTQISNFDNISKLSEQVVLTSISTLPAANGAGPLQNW", "chain of UniProt Q01959 (whole entry, looked up)": "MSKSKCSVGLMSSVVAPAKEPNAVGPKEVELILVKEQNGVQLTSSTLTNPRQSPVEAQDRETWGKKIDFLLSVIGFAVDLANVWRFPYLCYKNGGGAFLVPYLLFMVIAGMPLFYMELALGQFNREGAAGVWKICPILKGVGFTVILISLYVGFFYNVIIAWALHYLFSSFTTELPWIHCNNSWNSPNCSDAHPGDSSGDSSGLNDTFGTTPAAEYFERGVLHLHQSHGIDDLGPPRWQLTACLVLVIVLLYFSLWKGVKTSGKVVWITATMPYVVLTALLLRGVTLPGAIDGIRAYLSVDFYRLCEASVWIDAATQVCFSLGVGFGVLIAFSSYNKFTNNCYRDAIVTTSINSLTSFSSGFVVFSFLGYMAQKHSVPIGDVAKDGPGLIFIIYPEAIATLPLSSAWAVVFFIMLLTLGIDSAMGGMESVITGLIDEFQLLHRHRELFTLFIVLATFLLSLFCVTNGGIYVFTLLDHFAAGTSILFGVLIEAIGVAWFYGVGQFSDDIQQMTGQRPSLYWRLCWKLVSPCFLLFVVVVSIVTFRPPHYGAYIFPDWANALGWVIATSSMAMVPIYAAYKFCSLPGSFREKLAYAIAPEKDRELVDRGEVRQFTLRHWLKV", "chain of UniProt P10827 (whole entry, looked up)": "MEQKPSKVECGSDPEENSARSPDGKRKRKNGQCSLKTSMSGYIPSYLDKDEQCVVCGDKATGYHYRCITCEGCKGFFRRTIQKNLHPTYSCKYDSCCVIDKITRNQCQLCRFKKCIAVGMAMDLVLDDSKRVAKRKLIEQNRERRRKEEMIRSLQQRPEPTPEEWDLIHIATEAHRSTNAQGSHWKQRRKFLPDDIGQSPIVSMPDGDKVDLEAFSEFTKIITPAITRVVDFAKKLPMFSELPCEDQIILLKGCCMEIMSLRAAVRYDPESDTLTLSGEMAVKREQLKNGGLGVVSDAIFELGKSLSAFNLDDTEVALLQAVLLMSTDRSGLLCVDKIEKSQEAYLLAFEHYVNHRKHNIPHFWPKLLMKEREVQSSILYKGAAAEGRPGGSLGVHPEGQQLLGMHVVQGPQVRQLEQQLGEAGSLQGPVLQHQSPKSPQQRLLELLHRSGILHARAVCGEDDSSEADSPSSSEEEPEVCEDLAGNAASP", "chain of UniProt P49019 (whole entry, looked up)": "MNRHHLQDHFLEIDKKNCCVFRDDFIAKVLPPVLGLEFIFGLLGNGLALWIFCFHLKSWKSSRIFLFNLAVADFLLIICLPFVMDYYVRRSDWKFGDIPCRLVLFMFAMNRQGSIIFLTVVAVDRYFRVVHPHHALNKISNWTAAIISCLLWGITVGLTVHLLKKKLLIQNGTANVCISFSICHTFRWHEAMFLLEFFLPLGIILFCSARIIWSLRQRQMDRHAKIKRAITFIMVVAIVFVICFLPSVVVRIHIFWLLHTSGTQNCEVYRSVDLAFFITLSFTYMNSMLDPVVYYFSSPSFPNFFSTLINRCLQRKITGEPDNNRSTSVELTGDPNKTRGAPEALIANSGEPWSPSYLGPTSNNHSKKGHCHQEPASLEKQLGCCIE", "chain of UniProt P14416 (whole entry, looked up)": "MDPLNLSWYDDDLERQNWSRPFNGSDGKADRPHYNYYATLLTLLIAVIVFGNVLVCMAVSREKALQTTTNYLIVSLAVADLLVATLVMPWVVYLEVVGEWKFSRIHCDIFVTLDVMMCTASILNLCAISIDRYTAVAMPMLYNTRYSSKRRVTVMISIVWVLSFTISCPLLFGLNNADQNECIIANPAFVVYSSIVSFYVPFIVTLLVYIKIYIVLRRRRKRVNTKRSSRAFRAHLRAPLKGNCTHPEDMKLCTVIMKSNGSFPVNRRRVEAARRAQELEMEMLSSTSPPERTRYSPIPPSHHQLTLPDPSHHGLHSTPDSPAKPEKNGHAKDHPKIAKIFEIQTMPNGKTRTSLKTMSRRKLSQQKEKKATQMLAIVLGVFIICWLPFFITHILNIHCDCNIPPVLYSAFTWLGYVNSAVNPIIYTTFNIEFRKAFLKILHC", "chain of UniProt P21554 (whole entry, looked up)": "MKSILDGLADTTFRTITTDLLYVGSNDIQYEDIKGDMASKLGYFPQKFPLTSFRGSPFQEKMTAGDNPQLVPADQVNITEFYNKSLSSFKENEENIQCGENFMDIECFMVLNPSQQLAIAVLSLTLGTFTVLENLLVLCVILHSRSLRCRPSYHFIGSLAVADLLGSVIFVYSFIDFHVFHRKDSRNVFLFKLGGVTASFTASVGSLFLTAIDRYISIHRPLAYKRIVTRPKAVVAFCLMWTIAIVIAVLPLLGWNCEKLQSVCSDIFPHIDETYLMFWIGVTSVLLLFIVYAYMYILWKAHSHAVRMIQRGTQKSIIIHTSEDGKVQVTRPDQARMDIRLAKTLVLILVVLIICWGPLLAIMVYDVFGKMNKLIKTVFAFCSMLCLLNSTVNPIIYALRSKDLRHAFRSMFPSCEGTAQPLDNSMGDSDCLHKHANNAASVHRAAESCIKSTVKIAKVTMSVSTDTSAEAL", "chain of UniProt P02708 (whole entry, looked up)": "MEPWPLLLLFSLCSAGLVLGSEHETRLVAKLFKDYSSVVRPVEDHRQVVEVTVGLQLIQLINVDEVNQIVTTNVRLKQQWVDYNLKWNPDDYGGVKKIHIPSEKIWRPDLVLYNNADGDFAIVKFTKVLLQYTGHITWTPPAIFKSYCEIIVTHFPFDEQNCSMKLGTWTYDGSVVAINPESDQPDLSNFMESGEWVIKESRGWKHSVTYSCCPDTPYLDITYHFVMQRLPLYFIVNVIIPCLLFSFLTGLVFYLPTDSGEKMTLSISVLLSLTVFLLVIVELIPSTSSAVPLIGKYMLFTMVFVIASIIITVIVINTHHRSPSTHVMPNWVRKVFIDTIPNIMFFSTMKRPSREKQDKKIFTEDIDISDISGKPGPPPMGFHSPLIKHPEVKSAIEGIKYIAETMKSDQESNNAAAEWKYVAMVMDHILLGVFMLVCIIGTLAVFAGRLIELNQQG", "chain of UniProt Q07001 (whole entry, looked up)": "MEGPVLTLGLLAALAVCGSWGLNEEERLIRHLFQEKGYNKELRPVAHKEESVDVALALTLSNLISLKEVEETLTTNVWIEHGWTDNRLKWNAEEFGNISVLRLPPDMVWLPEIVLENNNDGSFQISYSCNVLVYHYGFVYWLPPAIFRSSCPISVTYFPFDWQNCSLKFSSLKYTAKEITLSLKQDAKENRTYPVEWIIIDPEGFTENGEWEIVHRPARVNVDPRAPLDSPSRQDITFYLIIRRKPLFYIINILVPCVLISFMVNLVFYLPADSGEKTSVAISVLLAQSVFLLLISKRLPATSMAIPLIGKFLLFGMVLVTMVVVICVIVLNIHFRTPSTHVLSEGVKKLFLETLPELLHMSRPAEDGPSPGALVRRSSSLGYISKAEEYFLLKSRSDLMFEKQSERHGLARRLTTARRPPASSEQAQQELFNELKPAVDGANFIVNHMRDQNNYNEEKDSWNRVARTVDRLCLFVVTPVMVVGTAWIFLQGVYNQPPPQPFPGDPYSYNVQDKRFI"}
{"Compound": "C[C@]12N[C@H](Cc3ccccc31)c1ccccc12", "target or system": "NMDA receptor GluN1/GluN2B lacking NTD", "assay": "ion current, inhibitor, oocyte voltage clamp", "conditions": "50 nM", "measurement": "onset time constant", "value": "6.7 ± 1 s"}
{"Compound": "Cc1cc(OCC(=O)O)cc(C)c1Cc1ccc(O)c(C(C)C)c1", "target or system": "THRA (Homo sapiens, UniProt P10827)", "measurement": "Hill slope", "value": 2.98}
{"Compound": "C=CCN1CC[C@]23c4c5ccc(O)c4O[C@H]2C(=O)CC[C@]3(O)[C@H]1C5", "target or system": "CHRNA1/Acetylcholine receptor subunit delta (Homo sapiens, UniProt P02708+Q07001)", "conditions": "concentration not given", "measurement": "inhibition", "value": "-5.6%"}
{"Compound": "Cn1cc(C(F)(F)F)nc1-c1ccc(OCC(O)CNCCOc2ccc(O)c(C(N)=O)c2)cc1 (stereo not shown)", "target or system": "Plasmodium falciparum", "test system": "3D7", "measurement": "IC50", "value": "2.51 µM"}
{"Compound": "CNC(=O)[C@@H](c1ccccc1)N1CCc2cc(OC)c(OC)cc2[C@@H]1CCc1ccc(C(F)(F)F)cc1", "target or system": "HCRTR2 del254-292/I293E/K294R/L160H/M161K/Q254E", "assay": "fluorescence sensor response, fluorescence", "conditions": "concentration not given", "measurement": "normalised fluorescence response", "value": "-1.96 and -2.3 and -1.6 and -1.75 and 1.7 and -3.02 and 1.59"}
{"Compound": "CN1C(=O)CN=C(c2ccccc2)c2cc(Cl)ccc21", "target or system": "GABA-A receptor benzodiazepine site, central (rat)", "assay": "radioligand binding", "test system": "rat brain", "conditions": "1×10 µM", "measurement": "inhibition", "value": "100%"}
{"Compound": "CCCCCCCC[C@H]1O[C@H]1C/C=C/C=C/[C@H](O)CC(=O)NC1=C[C@](C)(CC)OC1=O", "target or system": "Na(+)-translocating NADH-quinone reductase subunit B, whole Na+-NQR complex (nqrB, Vibrio cholerae serotype O1, UniProt Q9KPS2, G141A)", "assay": "binding, isothermal titration calorimetry", "conditions": "20 °C, NqrB-G141A mutant", "measurement": "ΔG", "value": "-8.4 kcal/mol"}
{"Compound": "Cc1ccc(-n2nccn2)c(C(=O)N2CCN(c3nc4cc(Cl)ccc4o3)CC[C@H]2C)c1", "target or system": "HCRTR2 del254-292/I293E/K294R/L160H/M161K/Q254E", "assay": "fluorescence sensor response, fluorescence", "conditions": "concentration not given, added: OXA", "measurement": "normalised fluorescence response", "value": "-0.195 and -0.316 and -0.126 and -0.303 and -0.166 and -0.00185"}
{"Compound": "Oc1ccc2c3c1O[C@H]1[C@@H](O)CC[C@@]4(O)[C@@H](C2)N(CC2CCC2)CC[C@]314", "target or system": "HCAR3 (Homo sapiens, UniProt P49019)", "assay": "β-arrestin recruitment, TANGO luminescence, item: GPR109B", "conditions": "concentration not given", "scale": "baseline: basal luminescence", "measurement": "log2 fold change", "value": -0.365}
{"Compound": "COC(=O)[C@@H](NC(=O)c1nn(Cc2ccc(F)cc2)c2ccccc12)C(C)(C)C", "target or system": "CNR1 (Homo sapiens, UniProt P21554)", "assay": "GTPase", "scale": "baseline: compound", "measurement": "Gi GTP turnover median", "value": "100%"}
{"Compound": "COC(=O)c1c(-c2cc(OC)c(OC)c(OC)c2)c2ccc(OCc3ccccn3)cc2c(=O)n1-c1ccc(N)cc1", "target or system": "Plasmodium falciparum", "test system": "3D7", "measurement": "IC50", "value": "3.98 µM"}
{"Compound": "c1ccc2cc([C@]34CNC[C@H]3C4)ccc2c1", "target or system": "SLC6A3 (Homo sapiens, UniProt Q01959)", "assay": "inhibitor, [3H]dopamine uptake", "conditions": "100 µM", "scale": "baseline: no inhibitor", "measurement": "dopamine uptake", "value": "0.11% and 0.349% and 0.0853%"}
{"Compound": "CN[C@@]1(c2ccccc2Cl)CCCCC1=O", "target or system": "D(2) dopamine receptor, short isoform (DRD2, Homo sapiens, UniProt P14416)", "assay": "radioligand binding, agonist, radioligand displacement", "conditions": "30 µM", "measurement": "inhibition", "value": "9%"}
{"note": "A few entries again:"}
{"Compound": "COC(=O)[C@@H](NC(=O)c1nn(Cc2ccc(F)cc2)c2ccccc12)C(C)(C)C", "target or system": "CNR1 (Homo sapiens, UniProt P21554)", "assay": "GTPase", "scale": "baseline: compound", "measurement": "Gi GTP turnover median", "value": "100%"}
